# Assay results from different studies.
# Protocols differ between the studies behind these lines. Numbers after ± are the reported error.
# Urease: Urease (Canavalia ensiformis, UniProt P07374)
# RNA demethylase ALKBH5: RNA demethylase ALKBH5 (Homo sapiens, UniProt Q6P6C2)
# HDAC1: Histone deacetylase 1 (HDAC1, Homo sapiens, UniProt Q13547)
# MMP8: Neutrophil collagenase (MMP8, Homo sapiens, UniProt P22894)
SMILES,target,test,test system,setting,IC50
CN(Cc1ccccc1)CP(=O)(O)O,Urease,inhibitor,,pH 7,> 1000 µM
c1cc2c(s1)CCOC21CCN(Cc2ccc3c(c2)OCCO3)CC1,"Cytochrome P450 2D6 (CYP2D6, Homo sapiens, UniProt P10635)",inhibitor,,,0.5 µM
CSc1ccc2c(c1)c(CCN)c(C)n2Cc1ccccc1Cl,"Phosphatidylinositol 3,4,5-trisphosphate 5-phosphatase 1, Ptase-C2 domains (INPP5D, Homo sapiens, UniProt Q92835)","enzyme activity, inhibitor",,,138 µM
CCCCCc1cc(O)c2c(c1)OC(C)(C)C1CCC(C(=O)OC3OC(C(=O)O)C(O)C(O)C3O)=CC21 (centres unmarked),"Cytochrome P450 2B6 (CYP2B6, Homo sapiens, UniProt P20813)",inhibitor,"human, pooled liver microsomes","pH 7.4, with: bupropion",2.3 ± 1 µM
N#Cc1ccc(NC(=O)c2cccnc2)cc1Cl,"EGFR (Homo sapiens, UniProt P00533, T790M)","enzyme activity, inhibitor, ATP luminescence",,,< 50 µM
O=C(Nc1ccccc1)c1ccccc1O,"HDAC10 (Homo sapiens, UniProt Q969S8)","enzyme activity, inhibitor, fluorescence",,,> 10 µM
CC(C)C[C@H](NC(=O)[C@H](CCC(=O)O)NC(=O)[C@H](Cc1ccccc1)NC(=O)[C@H](C)NC(=O)[C@H](CC(=O)O)NC(=O)[C@@H]1CCCN1C(=O)[C@H](Cc1ccc(O)cc1)NC(=O)[C@H](CCCCN)NC(=O)[C@H](Cc1c[nH]c2ccccc12)NC(=O)[C@H](CO)NC(=O)CNC(=O)CNC(=O)[C@H](CC(=O)O)NC(=O)[C@@H](N)CCC(=O)O)C(=O)N[C@@H](CO)C(=O)NCC(=O)O,"Moesin, with CD44 (Homo sapiens, UniProt P26038)","CD44 peptide binding, TR-FRET",,with: CD44 peptide,1.4 µM
NC1CCc2cc(O)c(O)cc2C1 (centres unmarked),"Carbamate kinase (Giardia intestinalis, UniProt A8BB85)","enzyme activity, ATP luminescence",,,13 µM
NC(=O)Cn1c(-c2cccs2)noc1=O,Urease,"enzyme activity, inhibitor, absorbance",,,0.42 µM
COc1c(OCCOCCOCCOCCOCCOCCOCCOCCOc2cccc(C(=O)C3CCN(CCc4ccc(F)cc4)CC3)c2OC)cccc1C(=O)C1CCN(CCc2ccc(F)cc2)CC1,"HTR2A (Homo sapiens, UniProt P28223)","phosphorylation in cells, antagonist",,,0.192 µM
NC[C@@H](CC[C@H](N)C(=O)O)C[C@H]1O[C@@H](n2cnc3c(N)ncnc32)[C@H](O)[C@@H]1O,RNA demethylase ALKBH5,"RNA demethylase activity, inhibitor",,,> 50 µM
CN(C)c1ccc(NC(=O)CCCCCNC(=O)CS)cc1,HDAC1,"enzyme activity, inhibitor",,,5.38 µM
Cc1cc(S(=O)(=O)Nc2ncccn2)c(F)cc1N(C)C1CCN([C@H](C)c2ccccc2)CC1,"SCN8A (Homo sapiens, UniProt Q9UQD0)","tonic ion current block, inhibitor, patch clamp",,"held at V0.5, first pulse",0.196 µM
CSCCNC(=O)CCC(C)C1CCC2C3C(O)CC4CC(O)CCC4(C)C3CCC12C (centres unmarked),"Bile acid receptor (NR1H4, Homo sapiens, UniProt Q96RI1)","protein-protein interaction, antagonist",CHO-K1,with: GW4064 0.37 µM,1.68 µM
CC(C)[C@H](NC(=O)c1ccc(CCc2nc3c(c(=O)[nH]2)CCC3)cc1)C(=O)NC1COC1,MMP8,"enzyme activity, inhibitor",,,> 5 µM
CCCCCCCCCCCCC(O)C1CCC(C(O)CCCCCCCCCCCCC2=CC(C)OC2=O)O1 (centres unmarked),"MT-ND1/NDUFS2/NDUFS7, complex I (Bos taurus, UniProt P03887+P17694+P42026)","enzyme activity, inhibitor",,,5.5 µM
CC(C)[C@H](NC(=O)c1ccc(CCc2nc3c(c(=O)[nH]2)CCC3)cc1)C(=O)NC1CNC1,MMP8,"enzyme activity, inhibitor",,,> 5 µM
N[C@H](C(=O)N1CCCC1)C1CCN(c2nccc3c(-c4ncc(Cl)cc4Cl)cccc23)CC1,"PADI2 (Homo sapiens, UniProt Q9Y2J8)","enzyme activity, GDH-coupled",,with: Ca2+ 0.25 mM,0.0285 µM
CCC(=O)Nc1cc(Nc2cc(NC3CC3)n3ncc(C#N)c3n2)ccc1N(C)CCNC,"CSNK2A2 (Homo sapiens, UniProt P19784)","target engagement in cells, BRET",,,0.00251 µM
CSCC[C@H](N)C(=O)N[C@@H](CC(C)C)C(=O)N[C@@H](Cc1ccccc1)C(=O)N[C@@H](CO)C(=O)NCC(=O)O,"ACE (Homo sapiens, UniProt P12821)","enzyme activity, inhibitor, HPLC",,,185 µM
COC(=O)c1ccc(NC(=O)c2cccc(CC3CCCCC3)n2)c(Cc2ccccc2)c1,"Capsid scaffolding protein, protease domain (Human herpesvirus 8 type P, UniProt Q2HRB6)",,,pH 8,no inhibition
Nc1nc2c(c(=O)[nH]1)[n+](Cc1cccc(S(=O)(=O)F)c1)cn2[C@@H]1O[C@H](COP(=O)(O)O)[C@@H](O)[C@H]1O,"NT5C3B (Homo sapiens, UniProt Q969T7)","enzyme activity, inhibitor, absorbance",,pH 7.5,> 50 µM
CC[C@@H]1NC(=O)[C@H]([C@H](O)[C@H](C)Cc2nc3ccc(-c4nc5ccccc5s4)cc3[nH]2)N(C)C(=O)[C@H](C(C)C)N(C)C(=O)[C@H](CC(C)C)N(C)C(=O)[C@H](CC(C)C)N(C)C(=O)[C@@H](C)NC(=O)[C@H](C)NC(=O)[C@H](CC(C)C)N(C)C(=O)[C@H](C(C)C)NC(=O)[C@H](CC(C)C)N(C)C(=O)CN(C)C1=O,"PPIA/Calcineurin subunit B type 1/PPP3CA (Homo sapiens, UniProt P62937+P63098+Q08209)","enzyme activity, inhibitor",,,> 10 µM
CC(C)C[C@@H]1NC(=O)[C@H](CCCNC(=N)N)NC(=O)[C@H](CCCCN)NC(=O)[C@H](CC(=O)O)NC(=O)[C@H](CCCCN)NC(=O)[C@@H](CO)NC1=O,"MMP2 (Homo sapiens, UniProt P08253)","enzyme activity, inhibitor, fluorescence",,,> 10 µM
OC[C@@H]1[C@H](O)[C@H](O)[C@@H](O)CN1CCCCCC12CC(C1)C2,"GLA (Homo sapiens, UniProt P06280)","enzyme activity, inhibitor, absorbance",,pH 4.5,59.3 µM
CC(=O)N1CCC[C@H]1C(=O)N[C@@H](CC(C)C)C(=O)N[C@H]1C[C@H](CCCCCCCCc2ccccc2)C(=O)NCCCC[C@@H](C(N)=O)NC(=O)[C@H]([C@@H](C)OP(=O)(O)O)NC(=O)[C@H](CO)NC1=O,"Serine/threonine-protein kinase PLK2, polo-box domain (PLK2, Homo sapiens, UniProt Q9NYY3)","polo-box domain binding, inhibitor, fluorescence polarization",,isolated polo-box domain,0.6 ± 0.02 µM
Nc1ncnc2c1ncn2[C@@H]1O[C@H](CSCCNC(=O)NCCc2ccccc2)[C@@H](O)[C@H]1O,RNA demethylase ALKBH5,"RNA demethylase activity, inhibitor",,,> 50 µM
CC[C@H](C)[C@H](NC(C)=O)C(=O)N[C@@H](C)C(=O)N[C@@H](CCC(=O)O)C(=O)N[C@@H](CCC(N)=O)C(=O)N[C@@H](CC(C)C)C(=O)N[C@@H](CCCNC(=N)N)C(=O)N[C@@H](CCCNC(=N)N)C(=O)N[C@H](C(=O)NCC(=O)N[C@@H](CC(=O)O)C(=O)N[C@@H](CCCNC(=N)N)C(=O)N[C@@H](Cc1ccc(O)cc1)C(N)=O)[C@@H](C)CC,"MCL1 (Homo sapiens, UniProt Q07820)","BIM BH3 peptide binding, inhibitor, DELFIA displacement",,2 h preincubation,0.21 µM
F[P-](F)(F)(F)(F)F.OCP(CO)CO.OCP(CO)CO.OCP(CO)CO.OCP(CO)CO.[Cu+],"PSMB6/PSMB5/PSMB7 (Homo sapiens, UniProt P28072+P28074+Q99436)",trypsin-like activity,26S proteasome from LoVo cells,,34 µM
CC(=O)N[C@@H](Cc1ccccc1)C(=O)N[C@@H](CC(C)C)C(=O)N[C@H](C(=O)N[C@@H](CC(=O)O)C(=O)CCl)[C@@H](C)O,"Caspase-10 (CASP10, Homo sapiens, UniProt Q92851)","enzyme activity, inhibitor, fluorescence",,,82.8 µM
O=C(CCNC(=O)c1ccc(OC(F)(F)F)cc1)N[C@@H]1CCCc2ccccc21,"DHODH (Homo sapiens, UniProt Q02127)","enzyme activity, inhibitor, absorbance",,,0.2 µM
O=C(CCCCCCC(=O)Nc1ccc(N=Nc2ccccc2)cc1)NO,HDAC1,"enzyme activity, inhibitor",,trans isomer,0.081 ± 0.012 µM
O=C1c2ccc(O)c(O)c2C(=O)N1Cc1ccc(F)c(Cl)c1,"Gag-Pol polyprotein, integrase (gag-pol, Human immunodeficiency virus 1, UniProt P12497)","3'-processing, inhibitor, gel-based",,recombinant wild-type integrase,24.2 ± 2.8 µM
COC(=O)C=CCCC(NC(=O)c1ccncc1C(=O)O)C(=O)NC(C(=O)N1CC(=O)CC1C(=O)NC(C(=O)NC(C(N)=O)C1CCCCC1)C1CCCCC1)C(C)(C)C (centres unmarked),"TGM2 (Homo sapiens, UniProt P21980)","enzyme activity, inhibitor",,,0.445 µM
CCc1cccc2c(C(=O)NC3CCN(C(=O)C(C)C)CC3)c[nH]c12,"Procathepsin L (CTSL, Homo sapiens, UniProt P07711)","enzyme activity, inhibitor, FRET",,,> 100 µM
CCCCCCCCCC(=O)N[C@@H](CCCNC(=N)N)C(=O)N[C@H](C(=O)N[C@@H](CCCCN)C(=O)N[C@@H](CCCNC(=N)N)C(=O)CCl)C(C)C,"Proprotein convertase subtilisin/kexin type 5 (Homo sapiens, UniProt Q92824)","enzyme activity, inhibitor",,,0.000126 µM
COC(=O)[C@@]1(C)C=C(C(=O)Nc2cccc(C(=O)Nc3ccc(Nc4nccc(-c5cccnc5)n4)cc3)c2)C(=O)CC1,"MAPK8 (Homo sapiens, UniProt P45983)","kinase activity, inhibitor",,with: GSH 10 mM,0.017 ± 0.005 µM
CC[C@@H](C)[C@@H](NC(=O)[C@@H](CCCCN)NC(=O)[C@@H](CC(C)C)NC(=O)[C@H](N)[C@H](C)O)C(=O)N[C@@H](C(=O)N[C@H](Cc1c[nH]c2ccccc12)C(=O)N[C@H](CS)C(=O)O)C(C)C,"Microtubule-associated protein tau, K18 fragment, monomeric (MAPT, Homo sapiens, UniProt P10636)","tau K18 aggregation, inhibitor, thioflavin T fluorescence",,"pH 7.4, 37 °C, with: heparin 15 µM",12.1 ± 0.3 µM

# Repeated from above:
SMILES,target,test,test system,setting,IC50
CSCC[C@H](N)C(=O)N[C@@H](CC(C)C)C(=O)N[C@@H](Cc1ccccc1)C(=O)N[C@@H](CO)C(=O)NCC(=O)O,"ACE (Homo sapiens, UniProt P12821)","enzyme activity, inhibitor, HPLC",,,185 µM
CSCCNC(=O)CCC(C)C1CCC2C3C(O)CC4CC(O)CCC4(C)C3CCC12C (centres unmarked),"Bile acid receptor (NR1H4, Homo sapiens, UniProt Q96RI1)","protein-protein interaction, antagonist",CHO-K1,with: GW4064 0.37 µM,1.68 µM
CC(C)[C@H](NC(=O)c1ccc(CCc2nc3c(c(=O)[nH]2)CCC3)cc1)C(=O)NC1CNC1,MMP8,"enzyme activity, inhibitor",,,> 5 µM
CC[C@@H]1NC(=O)[C@H]([C@H](O)[C@H](C)Cc2nc3ccc(-c4nc5ccccc5s4)cc3[nH]2)N(C)C(=O)[C@H](C(C)C)N(C)C(=O)[C@H](CC(C)C)N(C)C(=O)[C@H](CC(C)C)N(C)C(=O)[C@@H](C)NC(=O)[C@H](C)NC(=O)[C@H](CC(C)C)N(C)C(=O)[C@H](C(C)C)NC(=O)[C@H](CC(C)C)N(C)C(=O)CN(C)C1=O,"PPIA/Calcineurin subunit B type 1/PPP3CA (Homo sapiens, UniProt P62937+P63098+Q08209)","enzyme activity, inhibitor",,,> 10 µM
COC(=O)[C@@]1(C)C=C(C(=O)Nc2cccc(C(=O)Nc3ccc(Nc4nccc(-c5cccnc5)n4)cc3)c2)C(=O)CC1,"MAPK8 (Homo sapiens, UniProt P45983)","kinase activity, inhibitor",,with: GSH 10 mM,0.017 ± 0.005 µM
COc1c(OCCOCCOCCOCCOCCOCCOCCOCCOc2cccc(C(=O)C3CCN(CCc4ccc(F)cc4)CC3)c2OC)cccc1C(=O)C1CCN(CCc2ccc(F)cc2)CC1,"HTR2A (Homo sapiens, UniProt P28223)","phosphorylation in cells, antagonist",,,0.192 µM
